Measurements of several laboratories.
Parts stem from different laboratories: compare values within a part only.
Sequence of UniProt P29323 (whole entry, looked up): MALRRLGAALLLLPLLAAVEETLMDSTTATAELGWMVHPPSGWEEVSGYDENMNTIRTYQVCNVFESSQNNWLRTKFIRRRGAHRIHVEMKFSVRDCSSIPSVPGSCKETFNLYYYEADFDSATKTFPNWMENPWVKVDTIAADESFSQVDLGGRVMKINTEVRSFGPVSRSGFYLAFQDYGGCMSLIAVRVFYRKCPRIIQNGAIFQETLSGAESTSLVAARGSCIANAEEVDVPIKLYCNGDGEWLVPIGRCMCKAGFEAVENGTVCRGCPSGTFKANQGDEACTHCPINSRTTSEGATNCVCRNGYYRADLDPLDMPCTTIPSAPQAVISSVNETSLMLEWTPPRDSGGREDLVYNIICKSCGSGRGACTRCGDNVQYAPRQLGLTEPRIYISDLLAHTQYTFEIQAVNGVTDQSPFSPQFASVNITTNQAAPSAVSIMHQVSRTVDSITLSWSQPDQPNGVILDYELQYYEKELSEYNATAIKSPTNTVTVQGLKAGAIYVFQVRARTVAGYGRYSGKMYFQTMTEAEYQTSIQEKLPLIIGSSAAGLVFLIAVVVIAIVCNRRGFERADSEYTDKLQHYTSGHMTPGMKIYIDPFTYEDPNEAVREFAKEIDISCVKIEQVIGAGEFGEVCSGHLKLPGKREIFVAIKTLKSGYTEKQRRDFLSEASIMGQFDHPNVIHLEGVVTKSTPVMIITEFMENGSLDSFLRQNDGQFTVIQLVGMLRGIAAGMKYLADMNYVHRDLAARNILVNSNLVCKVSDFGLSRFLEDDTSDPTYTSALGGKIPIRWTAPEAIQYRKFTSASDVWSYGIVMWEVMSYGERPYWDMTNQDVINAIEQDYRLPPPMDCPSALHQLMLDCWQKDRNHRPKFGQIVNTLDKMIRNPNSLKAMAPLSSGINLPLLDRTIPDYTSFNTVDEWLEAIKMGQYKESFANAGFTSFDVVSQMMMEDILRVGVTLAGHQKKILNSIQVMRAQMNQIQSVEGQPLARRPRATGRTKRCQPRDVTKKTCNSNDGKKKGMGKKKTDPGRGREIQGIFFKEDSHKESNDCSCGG
Sequence of UniProt Q04759 (whole entry, looked up): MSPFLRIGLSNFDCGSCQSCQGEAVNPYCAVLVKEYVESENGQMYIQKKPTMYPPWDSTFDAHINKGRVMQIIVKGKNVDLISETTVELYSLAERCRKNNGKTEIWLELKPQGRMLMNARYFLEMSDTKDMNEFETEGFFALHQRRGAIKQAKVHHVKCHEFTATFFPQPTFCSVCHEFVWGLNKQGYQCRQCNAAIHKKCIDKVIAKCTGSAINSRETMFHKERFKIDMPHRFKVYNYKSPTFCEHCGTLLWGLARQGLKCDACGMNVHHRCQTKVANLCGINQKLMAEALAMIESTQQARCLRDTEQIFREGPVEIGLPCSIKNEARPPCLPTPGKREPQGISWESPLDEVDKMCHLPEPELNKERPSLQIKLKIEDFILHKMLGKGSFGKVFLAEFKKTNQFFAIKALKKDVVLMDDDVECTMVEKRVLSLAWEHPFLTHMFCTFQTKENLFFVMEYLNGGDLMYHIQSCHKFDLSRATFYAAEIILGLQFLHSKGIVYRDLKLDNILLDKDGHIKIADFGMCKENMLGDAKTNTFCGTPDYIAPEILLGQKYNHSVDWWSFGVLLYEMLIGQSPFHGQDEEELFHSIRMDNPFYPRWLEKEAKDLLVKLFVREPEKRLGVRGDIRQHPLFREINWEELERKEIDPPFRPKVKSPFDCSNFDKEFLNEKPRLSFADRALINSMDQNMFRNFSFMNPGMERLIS
Sequence of UniProt Q16816 (whole entry, looked up): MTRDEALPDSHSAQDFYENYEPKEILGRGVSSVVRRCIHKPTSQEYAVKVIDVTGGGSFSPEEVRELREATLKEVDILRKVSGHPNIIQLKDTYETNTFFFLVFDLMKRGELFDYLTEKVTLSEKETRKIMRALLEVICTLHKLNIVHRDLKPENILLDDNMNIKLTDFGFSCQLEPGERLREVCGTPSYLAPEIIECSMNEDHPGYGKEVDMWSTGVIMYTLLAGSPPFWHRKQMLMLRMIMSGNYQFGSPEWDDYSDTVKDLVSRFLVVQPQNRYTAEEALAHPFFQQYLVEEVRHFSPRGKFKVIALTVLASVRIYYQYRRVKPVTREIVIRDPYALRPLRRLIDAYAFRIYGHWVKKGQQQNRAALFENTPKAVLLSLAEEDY
Sequence of UniProt Q16659 (whole entry, looked up): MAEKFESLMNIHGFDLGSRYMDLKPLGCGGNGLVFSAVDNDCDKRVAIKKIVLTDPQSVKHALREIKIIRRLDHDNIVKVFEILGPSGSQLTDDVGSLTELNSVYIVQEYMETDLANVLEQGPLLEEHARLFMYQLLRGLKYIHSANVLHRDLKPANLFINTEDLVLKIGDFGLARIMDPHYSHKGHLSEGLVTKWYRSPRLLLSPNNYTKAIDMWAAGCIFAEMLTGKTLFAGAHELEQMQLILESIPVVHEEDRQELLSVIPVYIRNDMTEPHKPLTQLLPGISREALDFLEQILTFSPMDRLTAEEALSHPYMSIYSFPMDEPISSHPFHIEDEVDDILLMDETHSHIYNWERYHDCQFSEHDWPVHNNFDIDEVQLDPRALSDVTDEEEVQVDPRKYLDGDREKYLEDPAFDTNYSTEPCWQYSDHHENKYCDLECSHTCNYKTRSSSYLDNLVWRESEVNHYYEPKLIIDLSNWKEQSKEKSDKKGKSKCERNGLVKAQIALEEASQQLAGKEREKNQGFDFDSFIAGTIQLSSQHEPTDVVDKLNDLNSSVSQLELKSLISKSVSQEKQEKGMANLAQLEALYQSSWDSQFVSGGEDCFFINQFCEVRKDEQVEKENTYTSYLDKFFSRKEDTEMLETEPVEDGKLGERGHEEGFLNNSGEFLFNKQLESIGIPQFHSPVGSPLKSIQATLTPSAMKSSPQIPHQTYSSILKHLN
Sequence of UniProt P07333 (whole entry, looked up): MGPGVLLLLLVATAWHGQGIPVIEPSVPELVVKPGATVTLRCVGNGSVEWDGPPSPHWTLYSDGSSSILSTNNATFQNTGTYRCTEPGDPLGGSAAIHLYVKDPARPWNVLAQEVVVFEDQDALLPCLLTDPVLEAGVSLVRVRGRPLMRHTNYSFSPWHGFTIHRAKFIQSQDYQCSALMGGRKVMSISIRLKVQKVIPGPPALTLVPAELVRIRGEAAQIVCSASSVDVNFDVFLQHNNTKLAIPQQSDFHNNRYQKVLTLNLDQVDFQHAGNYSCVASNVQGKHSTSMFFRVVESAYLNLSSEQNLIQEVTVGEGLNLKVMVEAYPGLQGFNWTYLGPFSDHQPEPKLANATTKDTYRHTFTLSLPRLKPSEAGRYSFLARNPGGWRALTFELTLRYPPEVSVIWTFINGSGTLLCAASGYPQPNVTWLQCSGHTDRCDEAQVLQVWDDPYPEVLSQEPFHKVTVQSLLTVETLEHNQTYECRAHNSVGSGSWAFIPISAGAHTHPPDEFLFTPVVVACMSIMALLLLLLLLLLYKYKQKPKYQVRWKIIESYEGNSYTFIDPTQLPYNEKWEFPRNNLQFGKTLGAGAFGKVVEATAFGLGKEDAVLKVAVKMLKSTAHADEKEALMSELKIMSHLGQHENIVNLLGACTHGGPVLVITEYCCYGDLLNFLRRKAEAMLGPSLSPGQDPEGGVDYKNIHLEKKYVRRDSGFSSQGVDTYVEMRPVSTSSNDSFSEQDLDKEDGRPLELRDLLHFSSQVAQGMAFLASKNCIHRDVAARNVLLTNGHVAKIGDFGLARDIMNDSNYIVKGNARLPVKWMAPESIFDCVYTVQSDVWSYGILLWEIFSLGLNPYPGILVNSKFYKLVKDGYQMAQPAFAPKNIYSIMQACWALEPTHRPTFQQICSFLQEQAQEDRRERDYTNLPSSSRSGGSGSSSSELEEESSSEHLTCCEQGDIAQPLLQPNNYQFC

Sample 1 — effect on: binding; technique: competition with immobilised ligand; tested at: 0.5 µM
Structure (SMILES): CCCCC(=O)Nc1ccc(-c2ccc3ncn(CCC)c(=O)c3c2)cn1
The remaining binding was 100% (MAPK6 (Homo sapiens, UniProt Q16659)).
The remaining binding was 100% (PHKG1 (Homo sapiens, UniProt Q16816)).
For PRKCQ (Homo sapiens, UniProt Q04759): remaining binding read 100%.
Macrophage colony-stimulating factor 1 receptor, autoinhibited (CSF1R, Homo sapiens, UniProt P07333) — remaining binding: 100%.

Single results of other studies — tested at: 1 µM
TGFBR1: TGF-beta receptor type-1 (TGFBR1, Homo sapiens, UniProt P36897)
Sequence of UniProt P36897 (whole entry, looked up): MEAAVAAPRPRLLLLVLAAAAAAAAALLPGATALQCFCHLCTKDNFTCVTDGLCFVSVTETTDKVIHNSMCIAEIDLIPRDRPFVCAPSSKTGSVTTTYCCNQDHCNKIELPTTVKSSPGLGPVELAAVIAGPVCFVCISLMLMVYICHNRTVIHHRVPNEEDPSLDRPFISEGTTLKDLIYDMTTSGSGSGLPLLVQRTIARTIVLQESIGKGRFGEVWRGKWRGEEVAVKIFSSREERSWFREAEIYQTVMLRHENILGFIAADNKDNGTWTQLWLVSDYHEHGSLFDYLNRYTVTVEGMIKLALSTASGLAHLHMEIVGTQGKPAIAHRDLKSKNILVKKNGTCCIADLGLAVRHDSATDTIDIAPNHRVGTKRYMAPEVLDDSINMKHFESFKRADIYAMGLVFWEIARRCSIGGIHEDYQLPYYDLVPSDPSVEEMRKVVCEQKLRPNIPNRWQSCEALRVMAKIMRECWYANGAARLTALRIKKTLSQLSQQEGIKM
The remaining binding of `C=CC(=O)N1CCC(COCC(=O)N2CCN(c3nc(-c4cnc(N)nc4C(F)F)nc(N4CCOC[C@@H]4C)n3)CC2)CC1` is reported as 100% (Tyrosine-protein kinase ABL1, non-phosphorylated (ABL1, Homo sapiens, UniProt P00519); binding, competition with immobilised ligand).
`COc1cc(-c2cncc3c2CN(C)Cc2cc(N4CCNCC4)ccc2-3)cc(OC)c1OC` has a remaining activity of 92% (EPHB2 (Homo sapiens, UniProt P29323); enzyme activity, inhibitor).
`Cc1cc([C@@H](C)Nc2ccccc2C(=O)O)c2nc(N3CCC(F)(F)CC3)c(C#N)c(=O)n2c1` gave a remaining binding of 71% (TGFBR1; binding, competition with immobilised ligand).
`CNc1ncc2c(/C=C/C(=O)N3CCC(OC)CC3)nn(Cc3cccc(C(F)(F)F)c3)c2n1` has a remaining activity of 86% (TGFBR1; enzyme activity, inhibitor, radiometric).

Some of these lines once more (single results of other studies):
`Cc1cc([C@@H](C)Nc2ccccc2C(=O)O)c2nc(N3CCC(F)(F)CC3)c(C#N)c(=O)n2c1` gave a remaining binding of 71% (TGFBR1; binding, competition with immobilised ligand).
